Assay results from different studies.
Parts stem from different laboratories: compare values within a part only. Values joined by “and” are separate records of one study, mostly repeats; a detail may differ.
UniProt P11362, sequence (whole entry, looked up): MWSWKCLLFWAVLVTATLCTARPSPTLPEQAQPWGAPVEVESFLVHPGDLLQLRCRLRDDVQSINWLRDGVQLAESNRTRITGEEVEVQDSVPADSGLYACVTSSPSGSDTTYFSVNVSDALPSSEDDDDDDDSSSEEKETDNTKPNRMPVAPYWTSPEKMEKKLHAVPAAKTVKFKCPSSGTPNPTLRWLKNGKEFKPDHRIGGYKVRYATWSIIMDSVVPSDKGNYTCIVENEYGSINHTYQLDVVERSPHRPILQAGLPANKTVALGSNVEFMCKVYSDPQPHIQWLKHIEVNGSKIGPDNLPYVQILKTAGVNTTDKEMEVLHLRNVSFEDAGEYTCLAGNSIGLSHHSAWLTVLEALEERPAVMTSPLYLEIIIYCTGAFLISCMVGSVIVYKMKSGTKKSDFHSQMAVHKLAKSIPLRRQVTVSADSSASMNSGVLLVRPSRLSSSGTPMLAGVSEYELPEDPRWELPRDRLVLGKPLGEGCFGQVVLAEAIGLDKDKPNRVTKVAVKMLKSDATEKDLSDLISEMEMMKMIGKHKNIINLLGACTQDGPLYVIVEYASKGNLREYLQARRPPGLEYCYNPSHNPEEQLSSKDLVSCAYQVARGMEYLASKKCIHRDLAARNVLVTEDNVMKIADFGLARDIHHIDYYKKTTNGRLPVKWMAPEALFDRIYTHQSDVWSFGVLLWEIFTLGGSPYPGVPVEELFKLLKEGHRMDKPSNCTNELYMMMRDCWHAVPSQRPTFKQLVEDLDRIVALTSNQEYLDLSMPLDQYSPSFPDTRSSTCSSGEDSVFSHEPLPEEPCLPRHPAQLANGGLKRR
UniProt Q13233, sequence (whole entry, looked up): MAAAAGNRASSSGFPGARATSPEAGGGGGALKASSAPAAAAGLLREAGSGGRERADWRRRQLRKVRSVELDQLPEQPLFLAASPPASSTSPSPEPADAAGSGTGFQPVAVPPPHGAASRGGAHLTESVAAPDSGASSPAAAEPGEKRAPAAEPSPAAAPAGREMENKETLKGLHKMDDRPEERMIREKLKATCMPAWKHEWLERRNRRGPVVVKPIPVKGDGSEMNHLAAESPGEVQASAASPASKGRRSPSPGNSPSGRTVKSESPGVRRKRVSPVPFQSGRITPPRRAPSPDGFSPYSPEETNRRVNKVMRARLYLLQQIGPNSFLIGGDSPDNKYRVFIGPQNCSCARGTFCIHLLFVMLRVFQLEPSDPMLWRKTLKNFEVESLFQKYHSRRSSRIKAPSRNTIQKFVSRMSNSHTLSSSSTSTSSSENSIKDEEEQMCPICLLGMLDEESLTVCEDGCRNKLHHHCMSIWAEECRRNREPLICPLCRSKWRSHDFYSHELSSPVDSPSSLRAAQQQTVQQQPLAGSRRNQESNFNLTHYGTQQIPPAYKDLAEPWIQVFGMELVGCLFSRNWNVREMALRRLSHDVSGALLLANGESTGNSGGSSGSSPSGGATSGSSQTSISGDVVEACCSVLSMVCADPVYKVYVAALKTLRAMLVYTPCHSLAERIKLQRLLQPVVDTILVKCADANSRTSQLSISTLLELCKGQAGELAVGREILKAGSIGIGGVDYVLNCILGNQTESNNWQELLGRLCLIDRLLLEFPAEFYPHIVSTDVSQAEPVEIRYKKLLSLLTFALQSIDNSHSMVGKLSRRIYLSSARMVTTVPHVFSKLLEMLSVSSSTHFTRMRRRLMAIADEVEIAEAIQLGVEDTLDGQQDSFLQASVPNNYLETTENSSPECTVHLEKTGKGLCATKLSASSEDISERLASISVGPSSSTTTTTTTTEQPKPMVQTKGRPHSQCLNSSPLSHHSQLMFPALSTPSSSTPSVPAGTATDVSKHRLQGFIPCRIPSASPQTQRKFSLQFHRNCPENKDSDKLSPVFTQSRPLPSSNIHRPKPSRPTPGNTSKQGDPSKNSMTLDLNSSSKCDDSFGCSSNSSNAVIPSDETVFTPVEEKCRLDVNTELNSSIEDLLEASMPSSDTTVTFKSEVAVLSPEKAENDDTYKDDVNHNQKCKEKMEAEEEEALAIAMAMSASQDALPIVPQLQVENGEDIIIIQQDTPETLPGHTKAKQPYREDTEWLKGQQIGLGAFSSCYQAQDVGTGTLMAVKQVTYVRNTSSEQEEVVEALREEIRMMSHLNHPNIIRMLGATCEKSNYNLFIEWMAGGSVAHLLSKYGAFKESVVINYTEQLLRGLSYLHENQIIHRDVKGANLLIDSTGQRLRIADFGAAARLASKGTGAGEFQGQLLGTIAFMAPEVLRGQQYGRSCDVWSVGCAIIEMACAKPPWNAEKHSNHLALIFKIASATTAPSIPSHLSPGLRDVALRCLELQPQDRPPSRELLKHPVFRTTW
UniProt P42336, sequence (whole entry, unmodified, looked up): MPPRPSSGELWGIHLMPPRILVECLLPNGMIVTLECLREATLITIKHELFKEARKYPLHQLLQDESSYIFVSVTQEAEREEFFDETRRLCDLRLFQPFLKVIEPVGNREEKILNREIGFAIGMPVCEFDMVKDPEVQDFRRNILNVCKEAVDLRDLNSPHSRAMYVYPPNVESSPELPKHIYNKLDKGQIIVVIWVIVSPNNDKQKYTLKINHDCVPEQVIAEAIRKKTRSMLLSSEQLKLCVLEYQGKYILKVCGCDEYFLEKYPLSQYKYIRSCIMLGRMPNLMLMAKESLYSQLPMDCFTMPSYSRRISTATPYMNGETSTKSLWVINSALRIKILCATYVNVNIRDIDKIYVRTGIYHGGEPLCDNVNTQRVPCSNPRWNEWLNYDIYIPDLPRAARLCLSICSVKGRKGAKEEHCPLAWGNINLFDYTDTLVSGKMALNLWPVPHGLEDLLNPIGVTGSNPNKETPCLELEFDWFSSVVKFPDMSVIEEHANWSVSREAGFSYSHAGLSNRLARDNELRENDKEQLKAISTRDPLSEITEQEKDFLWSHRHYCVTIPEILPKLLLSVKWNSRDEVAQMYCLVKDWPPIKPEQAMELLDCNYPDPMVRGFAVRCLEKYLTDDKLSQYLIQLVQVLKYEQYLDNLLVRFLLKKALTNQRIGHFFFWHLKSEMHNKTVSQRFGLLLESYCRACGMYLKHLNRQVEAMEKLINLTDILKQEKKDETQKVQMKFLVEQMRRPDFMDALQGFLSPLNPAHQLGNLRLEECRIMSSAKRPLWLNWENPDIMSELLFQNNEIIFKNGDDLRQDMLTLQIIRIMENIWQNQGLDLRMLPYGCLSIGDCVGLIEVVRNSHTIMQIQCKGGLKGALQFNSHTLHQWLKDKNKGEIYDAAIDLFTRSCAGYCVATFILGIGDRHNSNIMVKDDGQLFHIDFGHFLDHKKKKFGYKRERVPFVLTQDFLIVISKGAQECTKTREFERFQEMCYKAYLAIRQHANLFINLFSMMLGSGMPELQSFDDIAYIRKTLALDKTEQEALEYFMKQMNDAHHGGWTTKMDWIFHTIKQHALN
UniProt Q86YV6, sequence (whole entry, looked up): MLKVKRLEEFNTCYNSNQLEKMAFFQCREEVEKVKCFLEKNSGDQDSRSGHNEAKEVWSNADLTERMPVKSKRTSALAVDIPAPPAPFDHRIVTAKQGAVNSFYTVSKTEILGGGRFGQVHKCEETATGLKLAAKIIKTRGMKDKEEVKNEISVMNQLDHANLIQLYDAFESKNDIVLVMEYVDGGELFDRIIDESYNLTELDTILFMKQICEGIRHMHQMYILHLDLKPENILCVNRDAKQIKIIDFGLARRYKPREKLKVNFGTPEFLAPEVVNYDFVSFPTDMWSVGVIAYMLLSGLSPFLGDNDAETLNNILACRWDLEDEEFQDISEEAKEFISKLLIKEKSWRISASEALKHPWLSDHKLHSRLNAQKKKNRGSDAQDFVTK
UniProt P29322, sequence (whole entry, looked up): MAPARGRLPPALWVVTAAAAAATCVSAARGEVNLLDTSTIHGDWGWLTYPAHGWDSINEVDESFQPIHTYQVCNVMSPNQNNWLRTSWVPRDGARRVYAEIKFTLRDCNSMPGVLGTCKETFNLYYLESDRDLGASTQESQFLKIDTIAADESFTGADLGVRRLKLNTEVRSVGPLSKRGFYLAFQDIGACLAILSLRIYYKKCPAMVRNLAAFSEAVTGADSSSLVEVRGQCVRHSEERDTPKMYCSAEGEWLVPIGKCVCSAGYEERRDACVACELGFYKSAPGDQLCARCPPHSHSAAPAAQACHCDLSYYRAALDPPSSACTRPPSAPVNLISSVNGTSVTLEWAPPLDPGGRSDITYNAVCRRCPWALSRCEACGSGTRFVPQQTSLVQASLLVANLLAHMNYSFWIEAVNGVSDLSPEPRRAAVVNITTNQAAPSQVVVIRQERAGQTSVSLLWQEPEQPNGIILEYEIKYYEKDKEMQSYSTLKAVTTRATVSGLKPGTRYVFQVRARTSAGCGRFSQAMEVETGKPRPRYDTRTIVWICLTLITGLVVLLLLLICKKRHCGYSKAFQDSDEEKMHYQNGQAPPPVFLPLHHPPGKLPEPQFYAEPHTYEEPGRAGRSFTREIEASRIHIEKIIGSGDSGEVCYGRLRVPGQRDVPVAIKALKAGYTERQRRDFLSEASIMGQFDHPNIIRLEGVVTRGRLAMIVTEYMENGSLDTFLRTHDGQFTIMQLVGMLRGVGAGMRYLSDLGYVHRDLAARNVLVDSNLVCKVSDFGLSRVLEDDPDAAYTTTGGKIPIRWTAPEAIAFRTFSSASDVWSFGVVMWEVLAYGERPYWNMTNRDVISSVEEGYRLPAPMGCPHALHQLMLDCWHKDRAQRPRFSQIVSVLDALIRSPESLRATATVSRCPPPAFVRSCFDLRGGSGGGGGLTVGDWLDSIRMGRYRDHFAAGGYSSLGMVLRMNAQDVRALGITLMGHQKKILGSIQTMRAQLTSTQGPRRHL

Block 1 — cell line: mouse MPNST tumor cells; technique: high-content immunofluorescence imaging; refers to: nuclear SOX9; tested at: 10 µM; time: 12 h; setting: mean of 2 replicates; reference: DMSO control; direction: higher = more nuclear SOX9; measurement: nuclear SOX9 intensity
Structure (SMILES) = S=c1[nH]cnc2nc[nH]c12; result = 110 % of DMSO
Structure (SMILES) = CN1C(=O)OC(C)(C)C1=O; result = 106 % of DMSO and 95 % of DMSO
Structure (SMILES) = Cn1ccc2cc3c(cc21)CCN3C(=O)Nc1cccnc1; result = 88.4 % of DMSO
Structure (SMILES) = O=C(NNc1nc2cc(F)ccc2n2cccc12)c1cnccn1; result = 153 % of DMSO
Structure (SMILES) = Cc1ccc(-c2ncc[nH]2)cc1NC(=O)c1ccc(OCc2ccccn2)cc1; result = 105 % of DMSO
Structure (SMILES) = Cn1cccc1/C=C1\C(=O)NC(=O)c2ccccc21; result = 114 % of DMSO

Block 2 — cell line: A-375; tested at: 100 µM; time: 36 h; measurement: viability
Compound = CC1(C)O[C@@H]2C[C@H]3[C@@H]4C[C@H](F)C5=CC(=O)C=C[C@]5(C)[C@H]4[C@@H](O)C[C@]3(C)[C@]2(C(=O)CO)O1; result = 96.8%
Compound = NC(N)=Nc1nc(CSCCC(N)=NS(N)(=O)=O)cs1; result = 104%
Compound = COc1cc2nccc(Oc3ccc(NC(=O)NC4CC4)c(Cl)c3)c2cc1C(N)=O; result = 82.5%
Compound = COc1ccc([C@@H]2CC(=O)c3c(O)cc(O)cc3O2)cc1O; result = 88.3%
Compound = CC1(O)CCC(C(C)(C)O)CC1 (stereo not shown); result = 105%
Compound = Cc1noc(NS(=O)(=O)c2ccc(N)cc2)c1C; result = 98.2%
Compound = COC(=O)/C=C/C(=O)OC; result = 79.2%

Block 3 — species: human; matrix: microsomes or S9; tested at: 2 µM; time: 0.5 h; measurement: remaining compound
SMILES = COc1ccc([C@H](O)[C@H]2OCCN(Cc3ccccc3)C2=O)cc1; result = 11.3%
SMILES = O=c1cc(-c2ccccc2)oc2cc(O)c(O)c(O)c12; result = > 99%
SMILES = Cc1cc(C)c2c(c1)C(Nc1ncc(S(N)(=O)=O)s1)CCO2 (stereo not shown); result = 70.3%
SMILES = CCC(C)c1ccccc1OCCn1cnc2ccccc21 (stereo not shown); result = 0.0533%
SMILES = Cn1c(Cc2ccccc2)c(-c2ccccc2)c(=O)n1C; result = 72.2%
SMILES = COc1cc(=O)n(C)cc1C(=O)Nc1cc(C)on1; result = 88%
SMILES = Cc1cccc(S(=O)(=O)NCCCC(C)C(=O)O)c1Br (stereo not shown); result = > 100%
SMILES = Cn1ncc2c(NCCO)nc(Nc3cccc(F)c3)nc21; result = 11.7%
SMILES = Cc1c(Br)c2ccccc2n1CC(=O)n1ncc(C#N)c1N; result = 49%
SMILES = Cc1nn(C)c2ncnc(N3CC(C)(C)N(C)C[C@@H]3C)c12; result = > 99.9%

Block 4 — effect on: cell-free assay; technique: competition with immobilised ligand; tested at: 1 µM; measurement: remaining binding
SMILES: CC(=O)Nc1c(C(C)=O)c(=O)n(C)c2nc(-c3ccc(Cl)cc3Cl)c(-c3ccc(Cl)cc3)cc12
target = Receptor-type tyrosine-protein kinase FLT3 (FLT3, Homo sapiens, UniProt P36888, D835V/ITD); result = 100%
target = Epidermal growth factor receptor (EGFR, Homo sapiens, UniProt P00533, T790M); result = 100%
target = Mitogen-activated protein kinase kinase kinase 1 (MAP3K1, Homo sapiens, UniProt Q13233); result = 100%
target = Tyrosine-protein kinase HCK (HCK, Homo sapiens, UniProt P08631); result = 100%
target = Myosin light chain kinase family member 4 (MYLK4, Homo sapiens, UniProt Q86YV6); result = 100%
target = Receptor-type tyrosine-protein kinase FLT3 (FLT3, Homo sapiens, UniProt P36888, D835H); result = 100%
target = Mitogen-activated protein kinase kinase kinase 19 (MAP3K19, Homo sapiens, UniProt Q56UN5); result = 100%
target = Fibroblast growth factor receptor 1 (FGFR1, Homo sapiens, UniProt P11362); result = 100%
target = Casein kinase I isoform delta (CSNK1D, Homo sapiens, UniProt P48730); result = 100%
target = Ephrin type-A receptor 8 (EPHA8, Homo sapiens, UniProt P29322); result = 100%
target = RAC-beta serine/threonine-protein kinase (AKT2, Homo sapiens, UniProt P31751); result = 100%
target = Serine/threonine-protein kinase Nek5 (NEK5, Homo sapiens, UniProt Q6P3R8); result = 100%
target = Cyclin-dependent kinase 13 (CDK13, Homo sapiens, UniProt Q14004); result = 100%
target = Dual specificity mitogen-activated protein kinase kinase 4 (MAP2K4, Homo sapiens, UniProt P45985); result = 100%
target = Mitogen-activated protein kinase kinase kinase 6 (MAP3K6, Homo sapiens, UniProt O95382); result = 94%
target = Ribosomal protein S6 kinase alpha-4, N-terminal kinase domain (RPS6KA4, Homo sapiens, UniProt O75676); result = 100%
target = Phosphatidylinositol 4,5-bisphosphate 3-kinase catalytic subunit alpha isoform (PIK3CA, Homo sapiens, UniProt P42336, Q546K); result = 100%

For quick reference, copied from above (block 1):
Structure (SMILES) = S=c1[nH]cnc2nc[nH]c12; result = 110 % of DMSO
Structure (SMILES) = CN1C(=O)OC(C)(C)C1=O; result = 106 % of DMSO and 95 % of DMSO
